Measurements from different studies.
Compare with care: the assays were run in different laboratories. “And” joins repeats or separate records; there may be more than shown. ≈ marks a conversion by molar mass, not a printed value.

Cc1ccc2c(c1)nc(/C=C/c1cccc3cccnc13)n2-c1ccccc1
compound remaining (metabolic stability; rat, liver microsomes; 1.5 µM, 15 min): 55.1%

Cc1noc(C)c1Cn1cc(N2C(=O)CN(Cc3cccc(O)c3)C2=O)cn1
concentration (male Sprague-Dawley rat, plasma; oral, 30 mg/kg, 12 h): 7.88 ng/mL

Cc1ncsc1-c1ccc([C@H](C)NC(=O)[C@@H]2C[C@@H](O)CN2C(=O)[C@@H](NC(=O)CCc2ccc(C#Cc3ccc(C(=O)NCCCn4cc(-c5ccc6c(c5)CCN6C(=O)Cc5cccc(OC(F)(F)F)c5)c5c(N)ncnc54)cc3)cn2)C(C)(C)C)cc1
half-life (metabolic stability; mouse, liver S9; 1 µM): 64.7 min

COc1ccc2c(=O)n(C)c(-c3ccccc3)nc2c1
concentration (male Sprague-Dawley rat, brain; oral, 30 mg/kg, 30 min): 1.85 ng/mL

COc1ccc(N/N=C/c2ccc(-c3cccc(/C=N/Nc4ccc(OC)cc4)c3)cc2)cc1
haemolysis (haemolysis; mouse; 62.5 µg/mL, 1 h): < 30%

O=C(COc1ccc(Cl)cc1)NC12CC(c3nnc([C@H]4C[C@@H](OC(F)(F)F)C4)o3)(C1)C2
Tmax (human, plasma; oral, 145 mg, multiple doses, once daily, steady state, healthy volunteers): 4.02 h

Cc1nccn1CC1CCc2c(c3ccccc3n2C)C1=O (centres unmarked)
Vd (male Sprague-Dawley rat, plasma; intravenous): 1.86 L/kg

CCOC(=O)[C@@]12C[C@@H]1[C@@H](n1ccc3c(NC)nc(C#Cc4ccc(Cl)s4)nc31)[C@H](O)[C@@H]2O
concentration (male Sprague-Dawley rat, plasma; intravenous, 0.5 mg/kg, 4.8 min): 20.9 ng/mL

CC[C@@](O)(c1cc(F)c(Cl)c(F)c1)c1c2ccn(C3CC3)c(=O)c2nn1C
kinetic solubility (nephelometry; aqueous buffer; 30 min, pH 6.5): 50 to 100 µM (≈ 19.7 to 39.4 µg/mL)

OCc1ccc(-c2nn(Cc3cccnc3)c3ccccc23)o1
half-life (metabolic stability; rat, liver microsomes; 1 µM, pH 7.4): 11 min

Cc1c(C(=O)O)ccc2c3n(nc12)[C@@H]1[C@H](C3)N(CC2CC2)[C@@]2(C(=O)Nc3cc(Cl)ccc32)[C@H]1c1cccc(Cl)c1F
bioavailability (female minipig, plasma; oral, 2 mg/kg): 76%

COc1ccc([C@@H](O)c2cc(-c3ncnc4cc(N5CCOCC5)ccc34)c(F)cc2Cl)nn1
Tmax (human, plasma; oral, 300 mg, multiple doses, twice daily, patients): 1.87 h

Nc1ncc(-c2ccncc2)nc1Nc1ccc2[nH]ccc2c1
Vd (male C57BL/6 mouse, plasma; intravenous, 5 mg/kg): 6.8 L/kg

Cc1ccc2c(c1)nc(CCc1cccc3cccnc13)n2-c1ccccc1
compound remaining (metabolic stability; rat, liver microsomes; 1.5 µM, 0 h): 100%

O=C1CC[C@H](N2Cc3cc(N4CCN(CC5CCN(c6ccc([C@@H]7c8ccc(O)cc8CC[C@@H]7c7ccccc7)cc6)CC5)CC4)ccc3C2=O)C(=O)N1
Vd (Sprague-Dawley rat, plasma; intravenous, 5 mg/kg): 2.95 L/kg

CCn1ncc2c([C@](O)(c3ccc(C(F)(F)F)c(Cl)c3)C3CC3)n(C)nc2c1=O
kinetic solubility (nephelometry; aqueous buffer; 30 min, pH 6.5): < 5 µM

CCOc1c(O)cc(Br)c2c1CN1CCc3cc(OCC(F)F)c(O)cc3[C@@H]1C2
compound remaining (metabolic stability; rat, liver S9; 2 µM, 2 h, pH 7.4): < 1% and 0.3%

Fc1cccc(N/N=C/c2ccc(-c3ccc(/C=N/Nc4cccc(F)c4)cc3)cc2)c1
haemolysis (haemolysis; mouse; 62.5 µg/mL, 1 h): < 20%

NCc1ccc(-c2nn(Cc3ccncc3)c3ccccc23)o1
bioavailability (male CD-1 mouse, plasma; intraperitoneal, 30 mg/kg): 84%

CCn1cc(Cl)c2c(Cc3ccc(C(F)(F)F)nc3)n(C)nc2c1=O
kinetic solubility (nephelometry; aqueous buffer; 30 min, pH 6.5): 70 to 140 µM (≈ 26 to 51.9 µg/mL)

COc1cccc(-c2n[nH]c(SCc3ccccn3)n2)c1OC
concentration (female Sprague-Dawley rat, plasma; oral, 10 mg/kg, 30 min, single dose): 10000 ng/mL

Cc1cccc(NC(=O)CCCCCCCCC(=O)N2CCC(n3cc(-c4ccc5c(c4)CCN5C(=O)Cc4cccc(OC(F)(F)F)c4)c4c(N)ncnc43)CC2)c1C(=O)N1C[C@H](O)C[C@H]1C(=O)N[C@@H](C)c1ccc(-c2scnc2C)cc1
half-life (metabolic stability; mouse, liver S9; 1 µM): 55.2 min

N#C[C@@]1(c2ccc3c(N)ncnn23)O[C@H](CO)[C@@H](O)[C@H]1O
fraction unbound (dog, plasma; 10 µM): 0.932

CC[C@@](O)(c1ccc(C(F)(F)F)c(Cl)c1)c1c2cnn(C3CC3)c(=O)c2nn1C
kinetic solubility (nephelometry; aqueous buffer; 30 min, pH 6.5): 6.25 to 12.5 µM (≈ 2.67 to 5.34 µg/mL)

C/C(=N\c1ccc(O)cc1)c1cc2ccccc2n1C
Vd (male Sprague-Dawley rat, plasma; intravenous, 5 mg/kg, single dose): ~25 L/kg

CC(C)(C)c1ccc(O)c(CN(Cc2cc(C(C)(C)C)ccc2O)C2CCC(NC(N)=O)CC2)c1 (centres unmarked)
Tmax (male C57BL/6 mouse, brain; intraperitoneal, 10 mg/kg, single dose): 0.5 h

CC[C@@](O)(c1ccc(F)c(Cl)c1)c1c2ccn(C3CC3)c(=O)c2nn1C
kinetic solubility (nephelometry; aqueous buffer; 30 min, pH 6.5): 40 to 80 µM (≈ 15 to 30.1 µg/mL)

CCC(C)n1ncn(-c2ccc(N3CCN(c4ccc(OCC5COC(Cn6cncn6)(c6ccc(Cl)cc6Cl)O5)cc4)CC3)cc2)c1=O (centres unmarked)
solubility (FaSSIF; pH 6.5): 5 µg/mL (≈ 7.09 µM)

CC1(C)CN(C(=O)Cn2c(=O)c(C(=O)NCc3ccc(Cl)cc3)cc3nccnc32)C1
thermodynamic solubility (aqueous buffer; 24 h, pH 7.4, 37 °C): 41.4 µM (≈ 18.2 µg/mL)

Cc1nc(-c2cnc(NC(C)C)n(C)c2=O)ccc1Oc1ccnc(-c2cnn(C)c2)c1
Tmax (female mouse, plasma; oral, 15 mg/kg, single dose): 6 h

Cn1nc2c(=O)n(C3CC3)cnc2c1[C@](O)(c1ccc(C(F)(F)F)c(C#N)c1)C(F)(F)F
kinetic solubility (nephelometry; aqueous buffer; 30 min, pH 6.5): 40 to 80 µM (≈ 18.3 to 36.6 µg/mL)

O=C(c1ccc(F)cc1)C1CCN(CCn2c(=O)[nH]c3ccccc3c2=O)CC1
compound remaining (metabolic stability; rat, liver microsomes; 5 min): 82.9%

C[C@@H](c1ncncc1F)[C@](O)(Cn1cncn1)c1ccc(F)cc1F
haemolysis (haemolysis; mouse; 62.5 µg/mL, 1 h): 100%

O=C(C=Cc1ccccc1)Nc1cc(-c2ccnc(N3CCC(O)CC3)c2)ccn1
Vd (female Sprague-Dawley rat, plasma; intravenous, 5 mg/kg): 9.45 L/kg

O=c1ccc2ccc(O)cc2o1
scaled CLint (metabolic stability; monkey, liver microsomes): 847 mL/min/kg

CC(C)[C@@H](CS(=O)(=O)C(C)C)N1C(=O)[C@@](C)(CC(=O)O)C[C@H](c2cccc(Cl)c2)[C@H]1c1ccc(Cl)cc1
Vd (FVB mouse, plasma; intravenous, 20 mg/kg, single dose): 0.588 L/kg

CN(C)C(=O)c1cc2cnc(Nc3ccc(-c4ccc5c(=O)cc(N6CCOCC6)oc5c4)cc3)nc2n1C1CCCC1
Vd/F (BALB/c mouse, plasma; oral, 20 mg/kg): 33.8 L/kg

Cn1nc2c(=O)n(C3CC3)ncc2c1[C@](N)(c1ccc(C(F)(F)F)c(Cl)c1)C1CC1
kinetic solubility (nephelometry; aqueous buffer; 30 min, pH 6.5): 12.5 to 25 µM (≈ 5.47 to 10.9 µg/mL)

CCN1CCN(Cc2ccc(NC(=O)c3ccc(C)c(NC(=O)c4cncc(-c5cccs5)c4)c3)cc2C(F)(F)F)CC1
half-life (mouse, plasma; intraperitoneal, 10 mg/kg, single dose): 121 min

Cn1nc2c(=O)n(C3CC3)ccc2c1Cc1ccc(C(F)(F)F)c(C#N)c1
kinetic solubility (nephelometry; aqueous buffer; 30 min, pH 6.5): 67 to 134 µM (≈ 24.9 to 49.9 µg/mL)

COc1cc2c3c(n(CCCN4CCOCC4)c(=O)c2cc1OC)-c1cc2c(cc1C3=O)OCO2
half-life (male beagle dog, plasma; intravenous, 100 mg/m², infusion): 594 min
